{"data": "Measured values collected from several papers", "note": "Parts stem from different laboratories: compare values within a part only.", "sequence of UniProt P24723 (whole entry, looked up)": "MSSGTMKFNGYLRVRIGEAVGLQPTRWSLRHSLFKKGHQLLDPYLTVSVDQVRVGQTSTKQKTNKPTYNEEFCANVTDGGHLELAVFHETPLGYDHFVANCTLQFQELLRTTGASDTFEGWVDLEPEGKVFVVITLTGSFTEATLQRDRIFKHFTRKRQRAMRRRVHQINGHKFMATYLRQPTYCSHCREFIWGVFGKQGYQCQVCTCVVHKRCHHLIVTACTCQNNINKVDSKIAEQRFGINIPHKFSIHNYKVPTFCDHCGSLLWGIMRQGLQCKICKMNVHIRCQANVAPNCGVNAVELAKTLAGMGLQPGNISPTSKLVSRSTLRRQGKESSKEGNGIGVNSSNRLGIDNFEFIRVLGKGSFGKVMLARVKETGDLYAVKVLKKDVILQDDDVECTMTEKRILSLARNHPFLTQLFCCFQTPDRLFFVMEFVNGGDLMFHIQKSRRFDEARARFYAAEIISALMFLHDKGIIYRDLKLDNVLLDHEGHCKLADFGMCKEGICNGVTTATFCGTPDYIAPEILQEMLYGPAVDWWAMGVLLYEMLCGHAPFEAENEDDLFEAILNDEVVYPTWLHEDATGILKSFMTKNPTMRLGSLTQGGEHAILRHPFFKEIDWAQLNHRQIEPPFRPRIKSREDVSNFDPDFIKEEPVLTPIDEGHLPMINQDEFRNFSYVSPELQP", "sequence of UniProt P11802 (whole entry, looked up)": "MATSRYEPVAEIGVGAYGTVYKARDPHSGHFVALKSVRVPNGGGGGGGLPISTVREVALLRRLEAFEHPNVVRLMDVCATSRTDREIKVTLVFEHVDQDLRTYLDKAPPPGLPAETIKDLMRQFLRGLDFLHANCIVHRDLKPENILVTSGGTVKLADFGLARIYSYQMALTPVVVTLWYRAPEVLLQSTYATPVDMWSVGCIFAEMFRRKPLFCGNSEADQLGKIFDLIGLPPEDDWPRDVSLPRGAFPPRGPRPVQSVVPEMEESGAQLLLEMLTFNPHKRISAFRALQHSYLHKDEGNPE", "sequence of UniProt P29597 (whole entry, looked up)": "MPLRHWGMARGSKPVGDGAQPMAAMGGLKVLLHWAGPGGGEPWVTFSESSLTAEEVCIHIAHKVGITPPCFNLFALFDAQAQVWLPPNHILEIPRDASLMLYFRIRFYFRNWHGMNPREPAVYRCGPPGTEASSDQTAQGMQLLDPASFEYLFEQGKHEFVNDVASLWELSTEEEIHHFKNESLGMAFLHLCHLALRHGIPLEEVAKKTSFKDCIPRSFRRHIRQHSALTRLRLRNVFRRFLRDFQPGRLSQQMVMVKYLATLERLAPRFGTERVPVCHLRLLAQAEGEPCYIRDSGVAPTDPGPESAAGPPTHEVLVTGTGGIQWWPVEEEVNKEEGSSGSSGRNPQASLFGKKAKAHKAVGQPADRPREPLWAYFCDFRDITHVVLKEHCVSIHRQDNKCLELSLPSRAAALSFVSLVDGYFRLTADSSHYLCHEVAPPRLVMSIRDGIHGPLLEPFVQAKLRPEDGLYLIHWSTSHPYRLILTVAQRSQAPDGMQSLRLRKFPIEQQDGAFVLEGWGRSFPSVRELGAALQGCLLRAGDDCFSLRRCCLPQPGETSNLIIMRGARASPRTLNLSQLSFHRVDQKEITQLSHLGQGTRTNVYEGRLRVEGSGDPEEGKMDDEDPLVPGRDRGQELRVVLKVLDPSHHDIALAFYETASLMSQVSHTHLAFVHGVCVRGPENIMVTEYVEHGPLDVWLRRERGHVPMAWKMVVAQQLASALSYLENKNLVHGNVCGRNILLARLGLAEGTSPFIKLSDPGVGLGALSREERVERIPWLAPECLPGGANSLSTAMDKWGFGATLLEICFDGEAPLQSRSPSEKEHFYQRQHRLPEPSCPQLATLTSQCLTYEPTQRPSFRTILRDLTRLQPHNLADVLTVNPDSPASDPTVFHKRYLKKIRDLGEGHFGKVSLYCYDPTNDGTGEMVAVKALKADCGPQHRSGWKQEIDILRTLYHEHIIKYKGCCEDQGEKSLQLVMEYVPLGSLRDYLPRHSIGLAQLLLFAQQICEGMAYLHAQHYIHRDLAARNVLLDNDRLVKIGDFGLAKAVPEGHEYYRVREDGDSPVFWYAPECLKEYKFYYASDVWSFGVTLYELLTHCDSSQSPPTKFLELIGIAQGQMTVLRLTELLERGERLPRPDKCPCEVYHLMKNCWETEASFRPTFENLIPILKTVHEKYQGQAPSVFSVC", "sequence of UniProt P45984 (whole entry, looked up)": "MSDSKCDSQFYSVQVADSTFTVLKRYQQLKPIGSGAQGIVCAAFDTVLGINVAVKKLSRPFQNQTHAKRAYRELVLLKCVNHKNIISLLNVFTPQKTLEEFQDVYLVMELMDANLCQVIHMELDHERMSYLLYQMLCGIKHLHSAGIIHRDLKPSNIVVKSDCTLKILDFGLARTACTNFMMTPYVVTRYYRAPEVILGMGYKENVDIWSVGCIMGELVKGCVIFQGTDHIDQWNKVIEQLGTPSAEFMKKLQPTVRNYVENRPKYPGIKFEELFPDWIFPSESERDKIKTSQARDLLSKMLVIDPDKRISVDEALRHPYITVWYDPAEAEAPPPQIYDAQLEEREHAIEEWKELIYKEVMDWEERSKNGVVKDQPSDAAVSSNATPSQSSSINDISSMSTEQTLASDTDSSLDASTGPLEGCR", "sequence of UniProt Q13163 (whole entry, looked up)": "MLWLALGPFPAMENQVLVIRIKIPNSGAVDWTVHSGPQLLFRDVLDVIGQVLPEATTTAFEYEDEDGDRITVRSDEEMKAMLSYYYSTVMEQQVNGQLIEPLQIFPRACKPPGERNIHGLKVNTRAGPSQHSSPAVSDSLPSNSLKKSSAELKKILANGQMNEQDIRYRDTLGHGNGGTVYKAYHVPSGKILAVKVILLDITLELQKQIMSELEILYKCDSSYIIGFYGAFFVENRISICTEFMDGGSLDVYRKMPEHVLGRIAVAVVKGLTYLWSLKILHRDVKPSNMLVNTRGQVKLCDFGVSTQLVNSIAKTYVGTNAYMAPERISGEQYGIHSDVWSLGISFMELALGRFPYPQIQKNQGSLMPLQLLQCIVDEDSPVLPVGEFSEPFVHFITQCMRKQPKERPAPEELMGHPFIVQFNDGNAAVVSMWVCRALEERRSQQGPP", "sequence of UniProt Q9UHD2 (whole entry, looked up)": "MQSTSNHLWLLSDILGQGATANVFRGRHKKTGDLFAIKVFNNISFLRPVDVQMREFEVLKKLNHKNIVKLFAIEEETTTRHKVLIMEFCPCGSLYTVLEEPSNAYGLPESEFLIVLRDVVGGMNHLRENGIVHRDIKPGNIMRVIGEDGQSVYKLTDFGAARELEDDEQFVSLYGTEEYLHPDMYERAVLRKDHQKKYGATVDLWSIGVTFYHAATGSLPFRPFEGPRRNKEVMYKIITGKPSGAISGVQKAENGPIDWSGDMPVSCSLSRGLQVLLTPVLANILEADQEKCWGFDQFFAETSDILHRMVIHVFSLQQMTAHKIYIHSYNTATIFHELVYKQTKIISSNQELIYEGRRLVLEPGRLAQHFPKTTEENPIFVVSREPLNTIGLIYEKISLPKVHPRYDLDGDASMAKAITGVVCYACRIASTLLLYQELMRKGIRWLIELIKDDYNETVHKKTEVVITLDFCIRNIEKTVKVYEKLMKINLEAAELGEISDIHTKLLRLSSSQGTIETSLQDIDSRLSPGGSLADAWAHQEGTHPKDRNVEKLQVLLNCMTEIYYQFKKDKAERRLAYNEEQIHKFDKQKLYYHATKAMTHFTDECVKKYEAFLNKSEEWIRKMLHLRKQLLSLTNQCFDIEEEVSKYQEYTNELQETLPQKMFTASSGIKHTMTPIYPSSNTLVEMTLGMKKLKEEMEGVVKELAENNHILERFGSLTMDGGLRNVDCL", "sequence of UniProt Q9BVS4 (whole entry, looked up)": "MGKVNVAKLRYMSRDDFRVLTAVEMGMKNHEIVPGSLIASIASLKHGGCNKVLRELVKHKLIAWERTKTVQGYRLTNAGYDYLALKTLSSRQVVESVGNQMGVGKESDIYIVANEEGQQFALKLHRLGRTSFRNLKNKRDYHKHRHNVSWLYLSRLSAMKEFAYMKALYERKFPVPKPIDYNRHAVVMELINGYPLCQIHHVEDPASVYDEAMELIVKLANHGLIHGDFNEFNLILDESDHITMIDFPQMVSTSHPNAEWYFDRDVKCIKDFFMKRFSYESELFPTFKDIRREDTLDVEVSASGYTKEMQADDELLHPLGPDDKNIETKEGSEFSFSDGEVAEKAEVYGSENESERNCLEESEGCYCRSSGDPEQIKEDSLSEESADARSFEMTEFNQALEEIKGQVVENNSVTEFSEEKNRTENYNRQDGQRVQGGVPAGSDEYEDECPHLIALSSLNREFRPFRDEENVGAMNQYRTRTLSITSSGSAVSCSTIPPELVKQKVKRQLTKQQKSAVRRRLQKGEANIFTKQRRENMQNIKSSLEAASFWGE"}
{"data": "Block 1", "Compound": "CC(C)n1cnc(-c2ccc(F)cc2)c1-c1ncc(C(=O)Nc2ccc(N3CCN(C)CC3)cc2)[nH]1", "technique": "phase 2a trial", "species": "idiopathic pulmonary fibrosis patients"}
{"setting": "30 mg once daily, adverse event grade 5", "patients with gastrointestinal disorders [%]": 0}
{"setting": "dose not given, grade 2, arms pooled", "patients with gastrointestinal disorders [%]": 5}
{"setting": "30 mg once daily, adverse event grade 1", "patients with gastrointestinal disorders [%]": 2}
{"setting": "dose not given, grade 1, arms pooled", "patients with gastrointestinal disorders [%]": 9}
{"setting": "60 mg once daily, adverse event grade 5", "patients with gastrointestinal disorders [%]": 0}
{"setting": "dose not given, adverse event grade 3, all dose arms pooled", "patients with gastrointestinal disorders [%]": 0}
{"setting": "60 mg once daily, adverse event grade 4", "patients with gastrointestinal disorders [%]": 0}
{"setting": "60 mg once daily, adverse event grade 2", "patients with gastrointestinal disorders [%]": 2}
{"setting": "60 mg once daily, adverse event grade 3", "patients with gastrointestinal disorders [%]": 0}
{"setting": "30 mg once daily, adverse event grade 4", "patients with gastrointestinal disorders [%]": 0}
{"data": "Block 2", "SMILES": "Nc1cnc(N2CCc3cc(S(=O)(=O)Nc4c(F)cc(Cl)cc4F)cc(N4CCCC4=O)c32)nc1", "technique": "competition with immobilised ligand", "concentration": "1 µM"}
{"target": "Protein kinase C eta type (PRKCH, Homo sapiens, UniProt P24723)", "assay": "cell-free assay", "remaining binding [%]": 80}
{"target": "Phosphatidylinositol 4,5-bisphosphate 3-kinase catalytic subunit gamma isoform (PIK3CG, Homo sapiens, UniProt P48736)", "assay": "cell-free assay", "remaining binding [%]": 81}
{"target": "Dual specificity mitogen-activated protein kinase kinase 5 (MAP2K5, Homo sapiens, UniProt Q13163)", "assay": "cell-free assay", "remaining binding [%]": 84}
{"target": "Serine/threonine-protein kinase TBK1 (TBK1, Homo sapiens, UniProt Q9UHD2)", "assay": "cell-free assay", "remaining binding [%]": 85}
{"target": "Serine/threonine-protein kinase RIO2 (RIOK2, Homo sapiens, UniProt Q9BVS4)", "assay": "cell-free assay", "remaining binding [%]": 89}
{"target": "Cyclin-dependent kinase 4, with cyclin D1 (CDK4, Homo sapiens, UniProt P11802)", "assay": "cell-free assay", "remaining binding [%]": 97}
{"target": "Interleukin-1 receptor-associated kinase 1 (IRAK1, Homo sapiens, UniProt P51617)", "assay": "cell-free assay", "remaining binding [%]": 100}
{"target": "Non-receptor tyrosine-protein kinase TYK2, JH2 (TYK2, Homo sapiens, UniProt P29597)", "assay": "cell-free assay", "remaining binding [%]": 100}
{"target": "Mitogen-activated protein kinase kinase kinase 10 (MAP3K10, Homo sapiens, UniProt Q02779)", "assay": "cell-free assay", "remaining binding [%]": 75}
{"target": "Fibroblast growth factor receptor 3 (FGFR3, Homo sapiens, UniProt P22607, G697C)", "assay": "cell-free assay", "remaining binding [%]": 89}
{"target": "Mitogen-activated protein kinase 9 (MAPK9, Homo sapiens, UniProt P45984)", "assay": "cell-free assay", "remaining binding [%]": 84}
{"target": "Phosphorylase b kinase gamma catalytic chain, liver/testis isoform (PHKG2, Homo sapiens, UniProt P15735)", "assay": "cell-free assay", "remaining binding [%]": 100}
{"target": "Tyrosine-protein kinase ABL1, phosphorylated (ABL1, Homo sapiens, UniProt P00519, E255K)", "assay": "binding", "remaining binding [%]": 85}
{"data": "Block 3", "cell line": "HaCaT", "concentration": "100 µM", "time": "36 h"}
{"Compound": "CO/N=C(\\C(=O)N[C@@H]1C(=O)N2C(C(=O)OC(C)OC(C)=O)=C(COC(N)=O)CS[C@H]12)c1ccco1 (stereo partly drawn)", "viability [%]": 111}
{"Compound": "CC(C)c1cc2c(cc1S(=O)(=O)O)[C@@]1(C)CCC[C@@](C)(C(=O)O)[C@@H]1CC2", "viability [%]": 92.9}
{"Compound": "C[C@H](CCC(=O)O)[C@H]1CC[C@H]2[C@@H]3C(=O)C[C@@H]4CC(=O)CC[C@]4(C)[C@H]3CC(=O)[C@]12C", "viability [%]": 82.6}
{"Compound": "Nc1ccn([C@@H]2O[C@H](CO)[C@@H](O)C2(F)F)c(=O)n1", "viability [%]": 26.3}
{"Compound": "O=C(Nc1ccc([N+](=O)[O-])cc1Cl)c1cc(Cl)ccc1O", "viability [%]": 10.1}
{"Compound": "CC[C@H](C)C(=O)O[C@H]1C[C@H](O)C=C2C=C[C@H](C)[C@H](CC[C@@H](O)C[C@@H](O)CC(=O)O)[C@H]21", "viability [%]": 99.2}
{"Compound": "CCCCC(CC)CN1CN(CC(CC)CCCC)CC(C)(N)C1 (stereo not drawn)", "viability [%]": 2.9}
{"Compound": "CC(C)(S)C(N)C(=O)O (racemic)", "viability [%]": 82}
{"data": "Block 4", "target": "Tyrosine-protein kinase HCK (HCK, Homo sapiens, UniProt P08631)", "effect on": "enzyme activity", "mode": "inhibitor", "concentration": "0.5 µM", "baseline": "control", "sequence of UniProt P08631 (whole entry, looked up)": "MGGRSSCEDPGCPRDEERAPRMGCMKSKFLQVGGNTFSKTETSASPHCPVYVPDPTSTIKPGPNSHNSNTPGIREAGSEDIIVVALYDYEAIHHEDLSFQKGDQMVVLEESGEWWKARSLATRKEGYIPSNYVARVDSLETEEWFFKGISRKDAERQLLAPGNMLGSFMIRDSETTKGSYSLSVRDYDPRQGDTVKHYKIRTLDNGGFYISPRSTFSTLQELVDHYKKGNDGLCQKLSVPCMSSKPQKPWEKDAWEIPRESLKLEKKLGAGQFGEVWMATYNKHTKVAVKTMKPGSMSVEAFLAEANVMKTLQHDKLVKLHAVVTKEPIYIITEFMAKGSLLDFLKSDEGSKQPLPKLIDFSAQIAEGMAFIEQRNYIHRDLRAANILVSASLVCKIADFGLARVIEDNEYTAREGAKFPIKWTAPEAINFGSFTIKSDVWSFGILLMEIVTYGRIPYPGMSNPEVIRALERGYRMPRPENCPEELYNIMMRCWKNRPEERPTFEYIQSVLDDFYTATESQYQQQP"}
{"Compound": "Nc1nccc(-c2c(-c3ccc(F)cc3)ncn2C2CCNCC2)n1", "remaining activity [%]": 95.5}
{"Compound": "CC#CC(=O)Nc1cc2c(Nc3ccc(F)c(Cl)c3)ncnc2cn1", "remaining activity [%]": 92.2}
{"Compound": "Nc1nc(Nc2ccc(S(N)(=O)=O)cc2)nn1C(=O)c1c(F)cccc1F", "remaining activity [%]": 86.2}
{"Compound": "O=C1NC(=O)C(c2c[nH]c3ccccc23)=C1c1c[nH]c2ccccc12", "remaining activity [%]": 96}
{"Compound": "CSc1nc(-c2ccnc(N[C@@H](C)c3ccccc3)c2)c(-c2ccc(F)cc2)[nH]1 (racemic)", "remaining activity [%]": 83.5}
{"note": "Some of these lines once more (block 3):"}
{"Compound": "Nc1ccn([C@@H]2O[C@H](CO)[C@@H](O)C2(F)F)c(=O)n1", "viability [%]": 26.3}
{"Compound": "CC[C@H](C)C(=O)O[C@H]1C[C@H](O)C=C2C=C[C@H](C)[C@H](CC[C@@H](O)C[C@@H](O)CC(=O)O)[C@H]21", "viability [%]": 99.2}
{"Compound": "CO/N=C(\\C(=O)N[C@@H]1C(=O)N2C(C(=O)OC(C)OC(C)=O)=C(COC(N)=O)CS[C@H]12)c1ccco1 (stereo partly drawn)", "viability [%]": 111}
{"Compound": "O=C(Nc1ccc([N+](=O)[O-])cc1Cl)c1cc(Cl)ccc1O", "viability [%]": 10.1}
{"Compound": "CCCCC(CC)CN1CN(CC(CC)CCCC)CC(C)(N)C1 (stereo not drawn)", "viability [%]": 2.9}
{"Compound": "C[C@H](CCC(=O)O)[C@H]1CC[C@H]2[C@@H]3C(=O)C[C@@H]4CC(=O)CC[C@]4(C)[C@H]3CC(=O)[C@]12C", "viability [%]": 82.6}
